# Measured values gathered from unrelated publications.
# Compare with care: the assays were run in different laboratories. “And” joins repeats or separate records; there may be more than shown.
# Target: Tyrosine-protein kinase Yes (YES1, Homo sapiens, UniProt P07947)
# UniProt P07947, sequence (whole entry, looked up): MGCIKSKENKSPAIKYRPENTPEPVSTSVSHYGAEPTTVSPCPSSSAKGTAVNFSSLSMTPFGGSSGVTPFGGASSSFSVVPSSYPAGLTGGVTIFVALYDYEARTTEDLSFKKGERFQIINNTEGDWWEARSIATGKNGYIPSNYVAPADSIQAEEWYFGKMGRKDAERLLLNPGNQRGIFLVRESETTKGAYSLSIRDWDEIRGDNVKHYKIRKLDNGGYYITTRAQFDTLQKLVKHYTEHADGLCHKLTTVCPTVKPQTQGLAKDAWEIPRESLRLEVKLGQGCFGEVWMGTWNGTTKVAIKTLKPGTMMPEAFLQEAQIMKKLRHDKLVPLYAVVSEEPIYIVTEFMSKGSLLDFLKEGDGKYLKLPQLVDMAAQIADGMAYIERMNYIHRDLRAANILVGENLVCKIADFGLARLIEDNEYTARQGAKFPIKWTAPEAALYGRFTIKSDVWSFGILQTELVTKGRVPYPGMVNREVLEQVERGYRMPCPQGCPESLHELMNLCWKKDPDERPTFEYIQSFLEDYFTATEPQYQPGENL
Structure (SMILES),test,system,setting,scale,quantity,value
Cc1cccc(-c2ccc3nc(NC(=O)C4CCCCC4)nn3c2)c1,"enzyme activity, Dundee kinase panel",,10 µM,,remaining activity,92%
Cc1cnc2nc1Nc1cccc(c1)COC/C=C/COCc1cc(ccc1OCCN1CCOCC1)N2,binding,,0.1 µM,,remaining binding,62%
COc1ccc(NC(=O)Nc2ccc3c(c2)C(=O)N(C(C)CO)CC(C)C(CN(C)Cc2ccc4c(c2)OCO4)O3)cc1 (stereo not drawn),"kinase activity, KinaseProfiler",,"0.03 µM, species human",reference: control,remaining activity,95%
C=CC(=O)Nc1cccc(-c2cnc3[nH]cc(C(=O)NC(C)(C)C)c3n2)c1,"enzyme activity, inhibitor",,0.1 µM,,inhibition,15%
Cc1cccc(O[C@H]2CCC[C@@H](C(C)CNCc3ccncc3)C2)c1 (relative stereo),"enzyme activity, inhibitor",,1 µM,,inhibition,-2%
C=CC(=O)N1CCc2ccc(-n3c(=O)ccc4cnc5ccc(-c6cnn(C)c6)cc5c43)cc21,KINOMEscan,,1 µM,reference: DMSO control,remaining binding,100%
O=c1c(-c2ccc(Cl)c(CN3CCOCC3)c2)coc2cc(O)ccc12,"enzyme activity, inhibitor",,1 µM,,remaining activity,94%
O=C(Cc1ccc(OCc2ccccc2)cc1)NC1(C(=O)O)CCN(C(=O)c2ccc(-c3cccc(Cl)c3)cc2)CC1,"enzyme activity, inhibitor",,10 µM,,activity vs control,111%
CCN1CCN(Cc2ccc(NC(=O)c3ccc(C)c(NC(=O)c4cncc(-c5cccs5)c4)c3)cc2C(F)(F)F)CC1,"binding, competition with immobilised ligand",,1 µM,,remaining binding,0.55%
CN1CCN(Cc2ccc(-c3ccc(CO[C@H]4CCC[C@@H]4NC(=O)c4cc(-c5cnn(C)c5)cnc4N)cc3)cc2)CC1,"enzyme activity, inhibitor",,0.1 µM,,inhibition,5%
COCC12C(=O)NC3C4(C(OC)CC1O)C1CC5(O)C(OC)C(O)C(OC(C)=O)(C1C5OC(=O)c1ccccc1)C3(O)C(OC)C24 (stereo not drawn),"kinase activity, inhibitor, ProQinase kinase profiling",,25 µM,reference: control,remaining activity,103% and 106%
COc1cc(Nc2nccc(-c3cnn4nc(OC)ccc34)n2)cc(C(F)(F)F)c1,"binding, competition with immobilised ligand",,1 µM,,remaining binding,99%
CN1CC[C@@H](COc2cnc(C#N)cc2-c2ccn3nc(NC(=O)C4CC4)cc3c2)C1,"enzyme activity, inhibitor",,1 µM,,inhibition,81%
O=C=[N][Ru-4]123([n]4c5ccc(O)cc5c5c6c(c7cc(F)c[n+]1c7c54)C(=O)NC6=O)[S+]1CC[S+]2CC[S+]3CC1 (stereo not drawn),enzyme activity,,"100 nM, human enzyme, together with: 10 µM ATP",reference: untreated,remaining activity,81%
Nc1ncc(-c2cc(-c3cnn(CC(F)(F)F)c3)ncc2F)nc1C(=O)NC1CNCC(F)C1 (stereo not drawn),enzyme activity,,1 µM,reference: DMSO control,remaining activity,81.2%
Cc1ccc(C)c(-c2ccc3nc(NC(=O)C4CCCCC4)nn3c2)c1,"enzyme activity, Dundee kinase panel",,10 µM,,remaining activity,101%
CCN1CCN(Cc2ccc(C(=O)Nc3ccc(C)c(NCc4cnc5[nH]ccc5c4OC)c3)cc2C(F)(F)F)CC1,"binding, competition with immobilised ligand",,1 µM,,remaining binding,2.7%
CC(C)=CC1OC(C)(C)C2C=C3C(=O)C(Cl)=CC(O)C3C3C(O)C4OC4C(=O)C132 (stereo not drawn),"cell-free assay, competition with immobilised ligand",,10 µM,,remaining binding,75%
Cc1ccc(C(=O)Nc2ccc(CN3CCN(C)CC3)c(C(F)(F)F)c2)cc1C#Cc1cnc2cccnn12,"target engagement, NanoBRET",human cells,,,Hill slope,0.246
Nc1nc(Nc2ccccc2)sc1C(=O)c1ccccc1,"enzyme activity, inhibitor",,10 µM,,remaining activity,25%
NC(=O)[C@@H](O)C[C@H]1CCc2sc3ncnc(O[C@H]4CC[C@H](N5CCOCC5)CC4)c3c21,"enzyme activity, inhibitor",,10 µM,,inhibition,57%
